Measurements collected from several papers.
Each line is one published result; not all experiments were run side by side. ± marks the error that the study gave.
CDK17: Cyclin-dependent kinase 17 (CDK17, Homo sapiens, UniProt Q00537)
Chain of UniProt Q00537 (whole entry, looked up): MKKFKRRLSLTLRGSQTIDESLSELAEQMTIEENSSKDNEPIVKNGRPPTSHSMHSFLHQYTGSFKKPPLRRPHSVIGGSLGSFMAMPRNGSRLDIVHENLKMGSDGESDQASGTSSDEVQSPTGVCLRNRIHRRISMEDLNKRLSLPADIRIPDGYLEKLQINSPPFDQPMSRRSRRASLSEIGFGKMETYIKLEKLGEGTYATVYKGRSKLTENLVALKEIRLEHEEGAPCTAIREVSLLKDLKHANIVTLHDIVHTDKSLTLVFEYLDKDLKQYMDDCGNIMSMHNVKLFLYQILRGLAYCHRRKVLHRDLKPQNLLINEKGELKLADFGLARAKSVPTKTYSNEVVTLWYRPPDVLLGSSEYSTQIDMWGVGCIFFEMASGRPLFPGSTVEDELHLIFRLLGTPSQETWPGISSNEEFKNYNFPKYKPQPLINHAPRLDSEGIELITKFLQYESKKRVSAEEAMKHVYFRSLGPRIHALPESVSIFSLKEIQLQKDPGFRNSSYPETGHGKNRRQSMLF
PARP1: Poly [ADP-ribose] polymerase 1 (PARP1, Homo sapiens, UniProt P09874)
Chain of UniProt P09874 (whole entry, looked up): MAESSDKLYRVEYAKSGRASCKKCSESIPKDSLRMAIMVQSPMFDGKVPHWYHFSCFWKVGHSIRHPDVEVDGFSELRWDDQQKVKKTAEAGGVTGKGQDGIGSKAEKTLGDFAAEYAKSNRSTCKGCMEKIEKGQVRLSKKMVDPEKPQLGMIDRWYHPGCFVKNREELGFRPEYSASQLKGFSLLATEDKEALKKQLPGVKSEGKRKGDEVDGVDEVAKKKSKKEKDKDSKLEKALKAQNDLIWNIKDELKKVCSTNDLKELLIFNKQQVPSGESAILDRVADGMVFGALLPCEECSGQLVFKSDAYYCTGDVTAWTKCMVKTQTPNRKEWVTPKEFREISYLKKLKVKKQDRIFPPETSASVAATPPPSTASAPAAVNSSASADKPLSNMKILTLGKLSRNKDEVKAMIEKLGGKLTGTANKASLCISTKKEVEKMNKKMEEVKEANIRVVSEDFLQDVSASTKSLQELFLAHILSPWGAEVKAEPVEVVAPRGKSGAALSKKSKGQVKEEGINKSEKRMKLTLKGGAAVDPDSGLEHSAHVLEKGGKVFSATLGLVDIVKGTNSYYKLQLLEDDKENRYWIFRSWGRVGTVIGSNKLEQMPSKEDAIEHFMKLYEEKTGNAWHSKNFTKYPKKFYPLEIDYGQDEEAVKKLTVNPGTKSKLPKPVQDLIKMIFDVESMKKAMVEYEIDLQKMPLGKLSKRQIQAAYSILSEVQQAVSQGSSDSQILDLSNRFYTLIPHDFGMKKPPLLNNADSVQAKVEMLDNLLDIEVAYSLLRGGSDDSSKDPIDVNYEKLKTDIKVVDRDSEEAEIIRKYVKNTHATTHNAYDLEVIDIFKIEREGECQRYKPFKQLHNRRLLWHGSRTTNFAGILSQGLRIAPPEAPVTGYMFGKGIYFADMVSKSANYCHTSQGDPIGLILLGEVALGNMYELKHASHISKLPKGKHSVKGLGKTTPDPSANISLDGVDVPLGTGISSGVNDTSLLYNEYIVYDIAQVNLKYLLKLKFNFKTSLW
Chain of UniProt P28072 (whole entry, looked up): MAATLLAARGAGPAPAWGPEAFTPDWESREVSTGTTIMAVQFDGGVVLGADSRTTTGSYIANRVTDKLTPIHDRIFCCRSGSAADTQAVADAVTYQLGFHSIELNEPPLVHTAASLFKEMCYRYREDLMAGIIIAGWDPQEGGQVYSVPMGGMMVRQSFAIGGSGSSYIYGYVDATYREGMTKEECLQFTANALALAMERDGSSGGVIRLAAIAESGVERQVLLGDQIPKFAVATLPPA
Chain of UniProt P57771 (whole entry, looked up): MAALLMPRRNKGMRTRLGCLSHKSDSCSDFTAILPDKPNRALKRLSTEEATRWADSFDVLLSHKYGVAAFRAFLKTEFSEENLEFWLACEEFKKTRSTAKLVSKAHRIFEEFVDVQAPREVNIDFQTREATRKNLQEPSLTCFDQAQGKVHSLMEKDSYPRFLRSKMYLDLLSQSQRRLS
Chain of UniProt O00311 (whole entry, looked up): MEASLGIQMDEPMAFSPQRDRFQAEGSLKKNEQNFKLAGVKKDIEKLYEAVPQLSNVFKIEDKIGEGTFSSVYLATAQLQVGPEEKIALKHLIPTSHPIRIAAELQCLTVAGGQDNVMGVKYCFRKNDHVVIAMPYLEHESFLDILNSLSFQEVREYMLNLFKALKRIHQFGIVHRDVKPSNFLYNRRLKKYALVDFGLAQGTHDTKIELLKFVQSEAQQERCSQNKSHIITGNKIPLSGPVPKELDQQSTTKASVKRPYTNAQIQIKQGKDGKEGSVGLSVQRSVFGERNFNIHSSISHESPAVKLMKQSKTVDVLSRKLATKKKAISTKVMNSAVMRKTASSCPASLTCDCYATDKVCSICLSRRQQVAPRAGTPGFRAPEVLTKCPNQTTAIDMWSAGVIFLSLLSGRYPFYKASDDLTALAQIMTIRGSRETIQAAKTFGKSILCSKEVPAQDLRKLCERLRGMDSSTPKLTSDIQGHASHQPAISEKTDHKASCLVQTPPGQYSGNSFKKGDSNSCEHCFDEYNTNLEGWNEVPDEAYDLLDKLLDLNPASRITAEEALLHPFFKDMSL
Chain of UniProt Q07912 (whole entry, looked up): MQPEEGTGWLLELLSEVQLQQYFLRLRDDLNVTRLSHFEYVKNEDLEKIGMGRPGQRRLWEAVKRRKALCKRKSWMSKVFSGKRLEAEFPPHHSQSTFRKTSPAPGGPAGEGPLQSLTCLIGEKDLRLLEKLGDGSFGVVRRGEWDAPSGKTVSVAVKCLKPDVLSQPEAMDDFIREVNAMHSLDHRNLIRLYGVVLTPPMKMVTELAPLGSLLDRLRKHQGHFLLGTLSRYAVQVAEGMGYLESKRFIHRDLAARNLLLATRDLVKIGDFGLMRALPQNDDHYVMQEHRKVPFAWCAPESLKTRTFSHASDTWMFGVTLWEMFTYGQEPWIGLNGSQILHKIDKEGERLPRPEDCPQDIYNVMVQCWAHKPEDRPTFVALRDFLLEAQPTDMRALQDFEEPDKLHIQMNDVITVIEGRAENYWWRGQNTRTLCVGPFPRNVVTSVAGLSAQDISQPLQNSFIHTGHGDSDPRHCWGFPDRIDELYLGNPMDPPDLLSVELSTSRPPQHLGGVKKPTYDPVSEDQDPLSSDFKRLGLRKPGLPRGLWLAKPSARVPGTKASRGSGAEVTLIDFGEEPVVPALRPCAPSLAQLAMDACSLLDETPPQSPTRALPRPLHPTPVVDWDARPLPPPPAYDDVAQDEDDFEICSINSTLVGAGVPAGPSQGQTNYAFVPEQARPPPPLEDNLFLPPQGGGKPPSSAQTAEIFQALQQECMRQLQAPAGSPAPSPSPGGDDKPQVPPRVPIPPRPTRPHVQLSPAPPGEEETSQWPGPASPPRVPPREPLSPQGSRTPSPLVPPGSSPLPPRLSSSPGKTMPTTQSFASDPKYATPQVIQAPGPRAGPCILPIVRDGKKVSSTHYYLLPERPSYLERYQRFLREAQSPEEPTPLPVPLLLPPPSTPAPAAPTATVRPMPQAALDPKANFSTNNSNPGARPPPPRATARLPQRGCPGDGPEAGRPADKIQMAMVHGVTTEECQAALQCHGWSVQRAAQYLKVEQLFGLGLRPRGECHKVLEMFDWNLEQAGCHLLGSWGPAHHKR
Chain of UniProt Q9UBY5 (whole entry, looked up): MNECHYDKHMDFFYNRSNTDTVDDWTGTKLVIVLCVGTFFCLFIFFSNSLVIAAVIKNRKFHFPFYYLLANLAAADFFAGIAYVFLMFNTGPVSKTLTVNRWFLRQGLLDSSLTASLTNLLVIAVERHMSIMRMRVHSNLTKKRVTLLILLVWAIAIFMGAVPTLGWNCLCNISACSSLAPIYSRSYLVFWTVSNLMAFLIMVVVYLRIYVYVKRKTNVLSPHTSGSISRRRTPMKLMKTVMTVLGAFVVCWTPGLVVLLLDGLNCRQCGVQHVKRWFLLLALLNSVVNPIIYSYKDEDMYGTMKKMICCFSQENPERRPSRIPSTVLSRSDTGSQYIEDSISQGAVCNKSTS
Chain of UniProt O60656 (whole entry, looked up): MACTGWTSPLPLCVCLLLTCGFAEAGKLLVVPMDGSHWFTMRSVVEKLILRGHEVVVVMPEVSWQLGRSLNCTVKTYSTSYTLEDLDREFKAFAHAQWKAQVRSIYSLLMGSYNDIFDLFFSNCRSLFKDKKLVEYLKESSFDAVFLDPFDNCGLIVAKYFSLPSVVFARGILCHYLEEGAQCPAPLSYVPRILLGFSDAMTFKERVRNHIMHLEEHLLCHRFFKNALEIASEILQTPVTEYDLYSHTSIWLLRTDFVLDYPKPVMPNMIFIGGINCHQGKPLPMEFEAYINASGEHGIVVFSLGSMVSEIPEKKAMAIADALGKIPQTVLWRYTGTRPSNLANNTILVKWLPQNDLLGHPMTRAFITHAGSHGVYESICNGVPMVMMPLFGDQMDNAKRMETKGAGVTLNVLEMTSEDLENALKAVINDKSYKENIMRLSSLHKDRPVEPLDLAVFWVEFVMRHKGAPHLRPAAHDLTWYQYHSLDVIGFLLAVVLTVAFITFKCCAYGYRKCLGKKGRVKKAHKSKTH

With C[C@@]12OC(=O)[C@]1([C@@H](O)[C@@H]1C=CCCC1)NC(=O)[C@@H]2CCCl the inhibition was 49% (PSMB6 (Homo sapiens, UniProt P28072); caspase-like proteasome activity; CB-17 SCID mice, MM1.S xenograft, tumour; intravenous, 0.15 mg/kg single, 24 h).
CC12CCC(CC1)C(C)(C)O2 gave an inhibition of 31 ± 7.6% (odorant receptor 32, with Orco (Culex quinquefasciatus, UniProt A0A0K0KUF8); ion current, inverse agonist, two-electrode voltage clamp; Xenopus oocytes; 100 µM, pH 7.6, together with: 100 µM methyl salicylate).
Cc1c(Nc2nccc3cc(CN4CC[C@@H](O)C4)cnc23)cccc1-c1cccc(-c2nc3cc(CN4CC[C@@H](C(=O)O)C4)cc(C#N)c3o2)c1C has an inhibition of 78% (CD274 (Homo sapiens, UniProt Q9NZQ7); unoccupied cell-surface PD-L1; BALB/c nu/nu mice, MDA-MB-231 xenograft, tumour; 150 mg/kg single dose, 24 h).
For CC(C)(C)c1cnc(CSc2cnc(NC(=O)C3CCN(CC(=O)NCCOCCOCCOCCNc4cccc5c4C(=O)N(C4CCC(=O)NC4=O)C5=O)CC3)s2)o1 (centres unmarked), the inhibition was 23.7% (CDK17; probe labeling, KiNativ live-cell profiling; MOLT-4 CRBN knockout; 0.25 µM).
`UGT1A9 (Homo sapiens, UniProt O60656)` has a Vmax/Km of 3.7 µL/min/mg (Oc1ccc([C@H]2COc3cc(O)ccc3C2)cc1; steady-state kinetics; pH 7.4, 37 °C).
O=C(Nc1c(F)cccc1Cl)c1cnc(Nc2ccc(N3CCOCC3)cc2)nc1NCC1CCCO1 (centres unmarked) has an inhibition of -32.6% (Activated CDC42 kinase 1, Tyr284 phosphorylation (TNK2, Homo sapiens, UniProt Q07912); Tyr284 autophosphorylation, inhibitor, immunoblotting; LAPC4; 5 µM, 16 h, together with: EGF; negative means increased phosphorylation).
With Cc1ccc(-n2sc(=O)n(Cc3ccc(F)cc3)c2=O)cc1 the inhibition was roughly 50% (Regulator of G-protein signaling 8 (Homo sapiens, UniProt P57771); Gα binding, irreversible inhibitor, FCPIA after washing; 20 µM, over 30 min, together with: Gαo).
The inhibition of C=CC(=O)N1CCN(c2nc(OC[C@@H]3CCCN3C)nc3c(F)c(-c4nc(N)cc(C)c4C(F)(F)F)c(Cl)cc23)[C@@H](C)C1 is reported as 20% (GTPase KRas, with RAF1 RBD (KRAS, Homo sapiens, UniProt P01116, G12C); MIA PaCa-2; 1 µM).
`lepirudin` has an inhibition of greater than 90% (Prothrombin, thrombin form (Mus musculus, UniProt P19221); thrombin proteolysis; 50% mouse serum; 0.5 mg/mL, 20 min, 37 °C).
For COc1ccccc1C1CC(c2ccc(F)cc2O)=NN1c1ccc(S(N)(=O)=O)cc1 (centres unmarked), the inhibition was 27% (CA9 (Homo sapiens, UniProt Q16790); enzyme activity, inhibitor; 1 mM).
With O=C1NCC(c2ccccc2)C(O)c2ccccc21 (racemic) the inhibition was 3% (PARP1; enzyme activity, inhibitor; 10 µM).
Cc1ccc(Oc2ccc3c(c2)C(=O)N(CC(=O)O)C3=O)cc1 has an inhibition of greater than 50% (LPAR3 (Homo sapiens, UniProt Q9UBY5); calcium signal, antagonist; 10 µM).
CC(C)(C)c1cnc(CSc2cnc(NC(=O)C3CCNCC3)s2)o1 has an inhibition of 70.9% (CDK17; probe labeling, KiNativ live-cell profiling; MOLT-4; 0.25 µM).
With Cc1cc(NC(=O)c2cccc(NC(=O)/C=C/CN(C)C)c2)ccc1Nc1nccc(-c2cccnc2)n1 the inhibition was 10.5% (PRKDC (Homo sapiens, UniProt P78527); ATP-biotin probe labeling, KiNativ; A-375; 1 µM, 3 h, second of two sites).
O=C1CCNC(=O)c2cc(Cl)c(Cl)cc21 has an inhibition of 0% (PARP1; enzyme activity, inhibitor; 10 µM).
For CN(C)c1ccc(C(=C2C=CC(=[N+](C)C)C=C2)c2ccc(N(C)C)cc2)cc1, the inhibition was 49% (Cell division cycle 7-related protein kinase, with DBF4 (CDC7, Homo sapiens, UniProt O00311); kinase activity, scintillation proximity; 10 µM, together with: Dbf4).
With O=C1CCCc2c(O)cccc2N1 the inhibition was greater than 30% (PARP1; enzyme activity, inhibitor; 10 µM).
CN(C)C/C=C/C(=O)Nc1cccc(C(=O)Nc2ccc(Nc3nccc(-c4c(-c5ccccc5)nn5ccccc45)n3)cc2)c1 has an inhibition of 8.9% (PIK3C3 (Homo sapiens, UniProt Q8NEB9); ATP-biotin probe labeling, KiNativ; A-375; 1 µM, 3 h, first of two sites).
With c1ccc2c(c1)CCCn1nnnc1-2 the inhibition was 0% (PARP1; enzyme activity, inhibitor; 10 µM).
With O=C(O)c1ccc2ccccc2c1 the inhibition was roughly 30% (Glutamate NMDA receptor; Grin1/Grin2a (Grin1/Grin2a, Rattus norvegicus, UniProt P35439+Q00959); ion current, two-electrode voltage clamp; 100 µM, oocytes).

Some of these lines once more:
CC12CCC(CC1)C(C)(C)O2 gave an inhibition of 31 ± 7.6% (odorant receptor 32, with Orco (Culex quinquefasciatus, UniProt A0A0K0KUF8); ion current, inverse agonist, two-electrode voltage clamp; Xenopus oocytes; 100 µM, pH 7.6, together with: 100 µM methyl salicylate).
For CN(C)c1ccc(C(=C2C=CC(=[N+](C)C)C=C2)c2ccc(N(C)C)cc2)cc1, the inhibition was 49% (Cell division cycle 7-related protein kinase, with DBF4 (CDC7, Homo sapiens, UniProt O00311); kinase activity, scintillation proximity; 10 µM, together with: Dbf4).
CC(C)(C)c1cnc(CSc2cnc(NC(=O)C3CCNCC3)s2)o1 has an inhibition of 70.9% (CDK17; probe labeling, KiNativ live-cell profiling; MOLT-4; 0.25 µM).
